Published values pooled from the literature.
Parts stem from different laboratories: compare values within a part only. Several values in a cell are separate wells, animals, samples, runs or records.

Set 1
Target: 5-hydroxytryptamine receptor 1E (HTR1E, Homo sapiens, UniProt P28566)
UniProt P28566, sequence (whole entry, looked up): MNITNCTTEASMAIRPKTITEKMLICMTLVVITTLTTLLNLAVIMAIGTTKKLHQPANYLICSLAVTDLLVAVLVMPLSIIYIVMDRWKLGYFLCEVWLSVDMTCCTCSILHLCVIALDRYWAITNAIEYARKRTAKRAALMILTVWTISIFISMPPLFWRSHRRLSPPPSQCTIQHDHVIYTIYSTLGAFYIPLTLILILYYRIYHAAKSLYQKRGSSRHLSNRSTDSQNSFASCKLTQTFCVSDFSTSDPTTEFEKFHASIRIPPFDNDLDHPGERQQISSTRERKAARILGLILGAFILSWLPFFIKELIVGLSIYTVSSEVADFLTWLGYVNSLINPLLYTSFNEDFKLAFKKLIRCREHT
Read-out: ligand displacement
Technique: radioligand
Concentration: 10 µM
| Compound | inhibition [%] |
| --- | --- |
| COc1cccc(NC(=O)c2nc3scc(CN(C)Cc4ccccc4)c3c(=O)[nH]2)c1 | -0.688 |
| CCC(=O)N[C@@H]1CC[C@H](C(=O)N(C)c2ccc(-c3nc4ccccc4o3)cc2)C1 | -5.68 |
| CN1CCN(c2cnc3c(C4CCN(C(=O)c5ccc(OC(F)(F)F)cc5N)CC4)ncnc3c2)CC1 | 14.2 |
| CC(C)(C)OC(=O)N1CCCC1CNC1CCC(c2cc(F)ccc2F)(S(=O)(=O)c2ccc(Cl)cc2)CC1 (centres unmarked) | -12.9 |
| C[C@@H]1CN(c2cc(-c3n[nH]c4ccc(OC5(C)CC5)cc34)ncn2)C[C@H](C)O1 | -7.52 |
| C[C@H](c1cccc(C#N)c1)n1cc(Cl)cc(C(N)=O)c1=N | 34.1 |
| Nc1cnc(N2CCc3cc(S(=O)(=O)Nc4c(F)cc(Cl)cc4F)cc(N4CCCC4=O)c32)nc1 | -4.55 |
| COc1cc(-c2cn(C3CCc4c(F)cccc4N(CC(F)(F)F)C3=O)nn2)ccc1-n1cnc(C)c1 (centres unmarked) | -8.76 |
| CC(C)(O)c1cncc(-c2nc3ccc(F)cc3n2C2CC2)c1 | -21.9 |
| CS(=O)(=O)c1cc(C2(NC(=O)c3cncc4c3cnn4-c3ccc(F)cc3)CC2)ccn1 | 14.8 |
| CNC(=O)c1ccc(Nc2ncc(C(F)(F)F)c(NCc3nccnc3N(C)S(C)(=O)=O)n2)cc1 | 18.2 |
| CN(C)C(=O)Cn1cc(-c2nc([C@@](C)(c3ccc(-c4cnc(N)nc4)cc3)C3CC3)no2)cn1 | -14 |
| O=C1CCc2cc(Nc3cc(OC4CCOCC4)c([N+](=O)[O-])cc3Cl)ccc2N1 | 16.5 |
| CO[C@H]1CC[C@H](CNc2ccc(S(=O)(=O)NC(=O)c3ccc(N4CCN(CC5=C(c6ccc(Cl)cc6)CC(C)(C)CC5)CC4)cc3Oc3cnc4[nH]ccc4c3)cc2[N+](=O)[O-])CC1 | -1.62 |
| C[C@@]1(Cc2ccc(C#N)cc2)C(=O)N(c2cc(Cl)cc(Cl)c2)c2ncc(C(=O)NC3(c4nc(C5CCC5)no4)CC3)n21 | 31.5 |
| Cn1nc(C(F)(F)F)cc1-c1cnc(N2CCc3cc(S(=O)(=O)Nc4c(F)cc(Cl)cc4F)cc(N4CCCC4=O)c32)nc1 | 14.8 |
| COc1cc(-c2cn(C3CCc4ccccc4N(CC(F)(F)F)C3=O)nn2)ccc1-n1ccc(C)n1 (centres unmarked) | -28.5 |
| Cn1cncc1[C@@](O)(COc1ccc(C#N)cc1-c1ccc(OC(F)(F)F)cc1)c1ccc(C#N)cc1 | 7.11 |
| CS(=O)(=O)NCC[C@H](NC(=O)c1cncc2c1cnn2-c1ccc(F)cc1)c1ccnc(S(C)(=O)=O)c1 | 8.79 |

Set 2
SMILES: C=CCc1ccc(O)c(-c2ccc(O)c(CC=C)c2)c1
Read-out: chloride current
Technique: whole-cell voltage clamp
ANO1 del476-501/F628I: Anoctamin-1 (ANO1, Homo sapiens, UniProt Q5XXA6, del476-501/F628I)
UniProt Q5XXA6, sequence (whole entry, unmodified, looked up): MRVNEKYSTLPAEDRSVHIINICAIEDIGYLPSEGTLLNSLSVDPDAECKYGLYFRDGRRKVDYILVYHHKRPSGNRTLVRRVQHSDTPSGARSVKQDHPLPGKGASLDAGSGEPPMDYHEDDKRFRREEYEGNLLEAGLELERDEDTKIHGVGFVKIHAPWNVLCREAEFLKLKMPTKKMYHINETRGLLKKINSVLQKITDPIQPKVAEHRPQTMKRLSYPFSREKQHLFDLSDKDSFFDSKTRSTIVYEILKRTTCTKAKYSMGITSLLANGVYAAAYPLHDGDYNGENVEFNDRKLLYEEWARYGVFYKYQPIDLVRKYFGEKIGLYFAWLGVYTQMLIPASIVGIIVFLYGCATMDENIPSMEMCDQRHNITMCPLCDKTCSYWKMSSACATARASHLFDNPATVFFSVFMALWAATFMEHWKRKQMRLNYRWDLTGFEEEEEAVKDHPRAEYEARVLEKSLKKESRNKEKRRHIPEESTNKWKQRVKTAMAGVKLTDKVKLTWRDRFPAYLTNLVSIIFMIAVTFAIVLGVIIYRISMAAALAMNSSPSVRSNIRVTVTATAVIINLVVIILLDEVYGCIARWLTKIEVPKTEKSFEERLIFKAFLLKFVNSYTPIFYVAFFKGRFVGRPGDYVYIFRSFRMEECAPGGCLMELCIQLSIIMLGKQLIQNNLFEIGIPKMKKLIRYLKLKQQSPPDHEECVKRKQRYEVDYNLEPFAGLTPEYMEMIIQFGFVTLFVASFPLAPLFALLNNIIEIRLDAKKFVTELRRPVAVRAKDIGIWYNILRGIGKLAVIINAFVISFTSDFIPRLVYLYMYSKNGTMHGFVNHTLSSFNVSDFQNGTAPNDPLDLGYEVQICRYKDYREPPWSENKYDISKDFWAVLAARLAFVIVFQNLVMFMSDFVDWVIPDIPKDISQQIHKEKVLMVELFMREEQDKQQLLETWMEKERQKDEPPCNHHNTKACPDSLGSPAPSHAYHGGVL
ANO1 del476-501/F623A: Anoctamin-1 (ANO1, Homo sapiens, UniProt Q5XXA6, del476-501/F623A)
| target | action | concentration | notes | added | IC50 [µM] |
| --- | --- | --- | --- | --- | --- |
| Anoctamin-1 (ANO1, Homo sapiens, UniProt Q5XXA6, del476-501/F807I) | inhibitor | – | F781I mutant at -40 mV | – | 7.23 |
| Anoctamin-1 (ANO1, Homo sapiens, UniProt Q5XXA6, del476-501/R631K) | inhibitor | – | R605K mutant at -20 mV | – | 8.56 |
| Anoctamin-1 (ANO1, Homo sapiens, UniProt Q5XXA6, del476-501) | – | – | membrane voltage -100 mV | 300 nM Ca2+ | 3.23 |
| Anoctamin-1 (ANO1, Homo sapiens, UniProt Q5XXA6, del476-501/M544A) | – | – | membrane voltage 80 mV | – | 4.09 |
| Anoctamin-1 (ANO1, Homo sapiens, UniProt Q5XXA6, del476-501/R631I) | inhibitor | – | R605I mutant at -100 mV | – | 27.4 |
| Anoctamin-1 (ANO1, Homo sapiens, UniProt Q5XXA6, del476-501/F803A) | – | – | membrane voltage 80 mV | – | 12.6 |
| Anoctamin-1 (ANO1, Homo sapiens, UniProt Q5XXA6, del476-501/R631D) | inhibitor | – | R605D mutant at 100 mV | – | 26 |
| Anoctamin-1 (ANO1, Homo sapiens, UniProt Q5XXA6, del476-501/F807W) | inhibitor | 40 mV holding voltage | – | – | 9.26 |
| Anoctamin-1 (ANO1, Homo sapiens, UniProt Q5XXA6, del476-501/F807A) | – | – | membrane voltage -100 mV | – | 50.6 |
| Anoctamin-1 (ANO1, Homo sapiens, UniProt Q5XXA6, del476-501/F628W) | inhibitor | – | mutant F602W | – | 15.1 |
| ANO1 del476-501/F628I | inhibitor | – | F602I mutant at -60 mV | – | 15.5 |
| ANO1 del476-501/F623A | – | – | membrane voltage 20 mV | – | 8.81 |
| ANO1 del476-501/F628I | inhibitor | – | F602I mutant at -80 mV | – | 17.7 |
| ANO1 del476-501/F623A | – | – | membrane voltage 80 mV | – | 8.92 |

Set 3
Target: Mitogen-activated protein kinase kinase kinase 11 (MAP3K11, Homo sapiens, UniProt Q16584)
UniProt Q16584, sequence (whole entry, looked up): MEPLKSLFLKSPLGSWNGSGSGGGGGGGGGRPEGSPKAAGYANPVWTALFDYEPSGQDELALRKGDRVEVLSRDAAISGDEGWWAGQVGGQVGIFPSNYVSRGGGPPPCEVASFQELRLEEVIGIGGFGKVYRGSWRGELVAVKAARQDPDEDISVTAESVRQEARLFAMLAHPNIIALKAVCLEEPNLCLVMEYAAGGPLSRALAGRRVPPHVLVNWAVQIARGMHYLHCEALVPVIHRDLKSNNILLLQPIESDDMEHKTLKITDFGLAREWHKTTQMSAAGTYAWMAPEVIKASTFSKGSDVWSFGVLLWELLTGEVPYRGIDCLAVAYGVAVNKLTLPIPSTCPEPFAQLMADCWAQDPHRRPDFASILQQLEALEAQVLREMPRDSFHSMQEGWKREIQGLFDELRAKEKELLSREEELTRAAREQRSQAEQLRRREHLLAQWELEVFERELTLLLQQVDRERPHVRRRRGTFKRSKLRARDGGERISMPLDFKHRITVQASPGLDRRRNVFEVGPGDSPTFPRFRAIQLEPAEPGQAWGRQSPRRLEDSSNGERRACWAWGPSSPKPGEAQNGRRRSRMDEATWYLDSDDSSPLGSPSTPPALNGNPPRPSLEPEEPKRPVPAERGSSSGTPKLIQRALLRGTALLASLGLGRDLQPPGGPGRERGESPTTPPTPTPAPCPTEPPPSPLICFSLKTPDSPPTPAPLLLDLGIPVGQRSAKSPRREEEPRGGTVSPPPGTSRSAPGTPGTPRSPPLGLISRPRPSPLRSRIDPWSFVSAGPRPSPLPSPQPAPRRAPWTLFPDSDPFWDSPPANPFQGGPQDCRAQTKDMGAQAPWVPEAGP
Read-out: enzyme activity
Action: inhibitor
Concentration: 0.5 µM
Baseline: control
| Structure (SMILES) | remaining activity |
| --- | --- |
| Oc1cccc(-c2nc(N3CCOCC3)c3oc4ncccc4c3n2)c1 | 96.5% |
| CN(C)S(=O)(=O)c1ccc2c(c1)/C(=C/c1cc3c([nH]1)CCCC3)C(=O)N2 | 57.4% |
| O=Nc1c(-c2c(O)[nH]c3cc(Br)ccc23)[nH]c2ccccc12 | 16% |
| O=c1cc(N2CCOCC2)oc2c(-c3ccccc3)cccc12 | 101% |
| c1ccc(-c2n[nH]c3c2oc2ccccc23)cc1 | 91.8% |
| O=C(c1cc2cc(O)ccc2[nH]1)c1cc2cc(O)ccc2[nH]1 | 24.5% |
| O=C1Nc2ccccc2/C1=C\c1c(Cl)[nH]c2ccccc12 | 100% |
| N#Cc1cnc2cnc(NCc3cccnc3)cc2c1Nc1ccc(F)c(Cl)c1 | 89% |
| COc1cccc(-c2cc(=O)c3ccccc3o2)c1N | 95.9% |
| CCCCc1c(-c2ccc(OC)cc2)[nH]c2nccnc12 | 39.4% |
| O=C1NC(=O)c2c1c1c3ccccc3[nH]c1c1[nH]c3cc(Br)ccc3c21 | 14% |
| Cc1ccc(S(=O)(=O)/C=C/C#N)cc1 | 98.2% |
| c1ccc2c(-c3ccncc3)c[nH]c2c1 | 95.2% |
| O=C1Nc2ccc(Br)cc2/C1=C/c1cc2c([nH]1)CCCC2 | 16.8% |
| COc1ccc2c(c1)c(C1=C(c3c[nH]c4ccccc34)C(=O)NC1=O)cn2CCCN(C)C | 75.6% |
| O=C1Cc2c([nH]c3ccc(Br)cc23)-c2ccccc2N1 | 49.4% |
| Cc1cc(Nc2cc(N3CCN(C)CC3)nc(Sc3ccc(NC(=O)C4CC4)cc3)n2)[nH]n1 | 52.7% |
| CCCNC(=O)Nc1ccc(Oc2ncnc3cc(OC)c(OC)cc23)cc1Cl | 89.2% |
| O=C1NC(=O)c2c1c1c3ccccc3[nH]c1n1cncc21 | 57.5% |

Single results of other studies
| SMILES | cell line | test | conditions | scale | endpoint | value |
| --- | --- | --- | --- | --- | --- | --- |
| CC(C)S(=O)(=O)c1ccc2nccc(Nc3ccc4sc(C5CCCC5)nc4c3)c2c1.Cl | L929 | caspase activity, Ac-DEVD-pNA absorbance | 50 µM, 0 h | higher = more activity | caspase-3 activity | -0.0035 a.u. and 0.019 a.u. and 0.0075 a.u. and 0.015 a.u. and 0.011 a.u. |

For quick reference, copied from above (set 1):
| Compound | inhibition [%] |
| --- | --- |
| CC(C)(C)OC(=O)N1CCCC1CNC1CCC(c2cc(F)ccc2F)(S(=O)(=O)c2ccc(Cl)cc2)CC1 (centres unmarked) | -12.9 |
| CO[C@H]1CC[C@H](CNc2ccc(S(=O)(=O)NC(=O)c3ccc(N4CCN(CC5=C(c6ccc(Cl)cc6)CC(C)(C)CC5)CC4)cc3Oc3cnc4[nH]ccc4c3)cc2[N+](=O)[O-])CC1 | -1.62 |
| Nc1cnc(N2CCc3cc(S(=O)(=O)Nc4c(F)cc(Cl)cc4F)cc(N4CCCC4=O)c32)nc1 | -4.55 |
| COc1cc(-c2cn(C3CCc4ccccc4N(CC(F)(F)F)C3=O)nn2)ccc1-n1ccc(C)n1 (centres unmarked) | -28.5 |
| CS(=O)(=O)c1cc(C2(NC(=O)c3cncc4c3cnn4-c3ccc(F)cc3)CC2)ccn1 | 14.8 |
| CN(C)C(=O)Cn1cc(-c2nc([C@@](C)(c3ccc(-c4cnc(N)nc4)cc3)C3CC3)no2)cn1 | -14 |
| CN1CCN(c2cnc3c(C4CCN(C(=O)c5ccc(OC(F)(F)F)cc5N)CC4)ncnc3c2)CC1 | 14.2 |
| C[C@@]1(Cc2ccc(C#N)cc2)C(=O)N(c2cc(Cl)cc(Cl)c2)c2ncc(C(=O)NC3(c4nc(C5CCC5)no4)CC3)n21 | 31.5 |
